Measurements pooled from the literature.
A part holds a random share of what one study measured. Substitutions count along the parent as printed.

Block 1
Target: CCND2, cyclin fold, Cln2 fusion (human)
Technique: yeast growth competition, sequencing
Medium: yeast
Notes: weak parent motif
Relative to: not given
Reading: higher = stronger binding
Starting sequence: MASTL docking peptide (human); PMIAKNLMCELDE
Under “normalised enrichment score”, `PMIWKNLMCELDE [A4W]` is recorded as 0.344.
`PMIAKNLMCILDE [E10I]`: “normalised enrichment score” -0.00187.
`PEIAKNLMCELDE [M2E]`: “normalised enrichment score” 0.147.
`PMIAKNLICELDE [M8I]`: “normalised enrichment score” 0.0082.
`PMIAKNSMCELDE [L7S]`: “normalised enrichment score” 0.0377.
Under “normalised enrichment score”, `PMIAKNLNCELDE [M8N]` is recorded as -0.125.
`PMIAKNLMCTLDE [E10T]`: “normalised enrichment score” -0.188.
Under “normalised enrichment score”, `PMEAKNLMCELDE [I3E]` is recorded as 0.0855.
Under “normalised enrichment score”, `PMIRKNLMCELDE [A4R]` is recorded as 0.178.
For `PMIAKRLMCELDE [N6R]`, “normalised enrichment score” read 0.0712.

Block 2
Target: MAFG, bZIP domain (human)
Technique: DHFR protein complementation
Medium: yeast
Notes: single substitutions, most at no-binding floor
Relative to: wild-type JUN-FOS pair
Reading: higher = stronger binding
Starting sequence: JUN, bZIP domain (human); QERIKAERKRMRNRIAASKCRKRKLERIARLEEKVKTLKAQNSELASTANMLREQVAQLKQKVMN; partner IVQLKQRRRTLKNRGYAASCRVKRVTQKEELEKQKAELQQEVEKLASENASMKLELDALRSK
For `E33G`, the binding fitness was -1.37 natural log.
`Q55G` gave a binding fitness of -1.47 natural log.
`K34R` has a binding fitness of -1.53 natural log.
The binding fitness of `L45V` is reported as -1.48 natural log.
For `A46D`, the binding fitness was -1.53 natural log.
For `I28L`, the binding fitness was -1.51 natural log.
`Q41V` gave a binding fitness of -1.54 natural log.

Block 3
Target: ABI1, truncated, D143A, DHFR fusion (Arabidopsis thaliana)
Technique: DHFR PCA, deep sequencing
Medium: yeast
Notes: methotrexate growth selection, single substitutions
Added: (+)-ABA 0.032 µM
Relative to: wild-type fitted maximum
Reading: higher = stronger binding
Starting sequence: PYL1, truncated, DHFR fusion (Arabidopsis thaliana); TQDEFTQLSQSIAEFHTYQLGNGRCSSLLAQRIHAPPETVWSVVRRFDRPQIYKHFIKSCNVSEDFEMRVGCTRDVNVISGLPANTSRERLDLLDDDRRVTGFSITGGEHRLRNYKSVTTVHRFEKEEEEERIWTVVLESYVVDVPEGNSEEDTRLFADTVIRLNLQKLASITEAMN; partner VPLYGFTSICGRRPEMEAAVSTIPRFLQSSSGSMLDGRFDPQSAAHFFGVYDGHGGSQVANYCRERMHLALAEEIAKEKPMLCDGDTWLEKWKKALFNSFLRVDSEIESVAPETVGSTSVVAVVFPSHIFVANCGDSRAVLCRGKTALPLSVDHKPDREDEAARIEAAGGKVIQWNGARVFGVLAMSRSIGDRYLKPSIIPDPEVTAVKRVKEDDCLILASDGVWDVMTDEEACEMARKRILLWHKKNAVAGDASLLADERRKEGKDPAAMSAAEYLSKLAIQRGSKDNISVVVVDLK
For `L91F`, “relative binding score” read -1.06%.
`V143M`: “relative binding score” -3.55%.
Under “relative binding score”, `Q7D` is recorded as 27.1%.
`H55V`: “relative binding score” 49.1%.
For `K168N`, “relative binding score” read 48.7%.
For `D96F`, “relative binding score” read 2.56%.
`L164V`: “relative binding score” 8.6%.
For `W134E`, “relative binding score” read 34.1%.
For `I57K`, “relative binding score” read -0.927%.

Further values, each from its own experiment
For `PhoQ, residues 284 288 289 292 302 303 QWGLFV`, the fold induction was 2.67 (PhoP, residues 12 14 15 18 19 SMASL (Escherichia coli, UniProt P23836); Sort-seq, refers to: YFP reporter; E. coli; PhoQ-PhoP variant library, added: 10 µM Mg2+; relative to: high Mg2+ state, higher = stronger signaling).

Some of these lines once more (block 3):
Under “relative binding score”, `Q7D` is recorded as 27.1%.
`V143M`: “relative binding score” -3.55%.
`H55V`: “relative binding score” 49.1%.
`L164V`: “relative binding score” 8.6%.
